{"data": "Experimental data collected from several papers", "note": "Parts stem from different laboratories: compare values within a part only. Values joined by “and” are separate records of one study, mostly repeats; a detail may differ. Positions count from the first letter of the parent shown."}
{"data": "Block 1", "target": "CCNE1, cyclin fold, Cln2 fusion (human)", "technique": "yeast growth competition, sequencing", "sample": "yeast", "setting": "strong parent motif", "relative to": "not given", "reading": "higher = stronger binding", "parent": "viral docking peptide; YKVKRRLVFGADD"}
{"Variant": "YKVKRRLLFGADD [V8L]", "normalised enrichment score": 5.57}
{"Variant": "YKVKRRLVFGADA [D13A]", "normalised enrichment score": 4.67}
{"Variant": "YKWKRRLVFGADD [V3W]", "normalised enrichment score": 2.57}
{"Variant": "YKVKRNLVFGADD [R6N]", "normalised enrichment score": 1.02}
{"Variant": "YKVKRILVFGADD [R6I]", "normalised enrichment score": 4.65}
{"Variant": "YKVKRRLNFGADD [V8N]", "normalised enrichment score": 6.44}
{"Variant": "YEVKRRLVFGADD [K2E]", "normalised enrichment score": 5.57}
{"Variant": "YKVKRRLVFGRDD [A11R]", "normalised enrichment score": 5.5}
{"Variant": "YRVKRRLVFGADD [K2R]", "normalised enrichment score": 5.97}
{"Variant": "YCVKRRLVFGADD [K2C]", "normalised enrichment score": 5.96}
{"Variant": "YKKKRRLVFGADD [V3K]", "normalised enrichment score": 0.431}
{"Variant": "YMVKRRLVFGADD [K2M]", "normalised enrichment score": 5.64}
{"Variant": "YKNKRRLVFGADD [V3N]", "normalised enrichment score": 0.368}
{"Variant": "YKVCRRLVFGADD [K4C]", "normalised enrichment score": 5.71}
{"Variant": "YKVKIRLVFGADD [R5I]", "normalised enrichment score": 0.806}
{"Variant": "YKVKRPLVFGADD [R6P]", "normalised enrichment score": 0.45}
{"Variant": "YKVKRRLVFGFDD [A11F]", "normalised enrichment score": 6.03}
{"data": "Block 2", "target": "TAR DNA-binding protein 43, full length, His tag (TARDBP, Homo sapiens, UniProt Q13148, residues 1-414)", "technique": "RNA Bind-n-Seq", "molecule type": "RNA", "sample": "in vitro", "tested at": "20 nM", "setting": "6-mer, flanks averaged, single round", "together with": "150 mM LiCl", "relative to": "input library", "reading": "higher = stronger binding"}
{"Sequence": "CGGUCC", "6-mer enrichment (R)": 0.879}
{"Sequence": "CAUGUG", "6-mer enrichment (R)": 1.15}
{"Sequence": "GGCAAC", "6-mer enrichment (R)": 0.863}
{"Sequence": "ACAUUC", "6-mer enrichment (R)": 0.841}
{"Sequence": "ACUAAA", "6-mer enrichment (R)": 0.839}
{"Sequence": "UCCGUG", "6-mer enrichment (R)": 0.958}
{"Sequence": "GGAGCA", "6-mer enrichment (R)": 1.01}
{"Sequence": "GAAGUC", "6-mer enrichment (R)": 0.864}
{"data": "Block 3", "target": "tungstate, free oxyanion", "technique": "microfluidic competitive inhibition", "sample": "in vitro, cell-free expressed", "tested at": "not given", "setting": "derived from inhibition constants, unchanged parent 2230 nM", "reading": "lower = stronger binding", "parent": "PafA, mature enzyme, eGFP fusion (Elizabethkingia meningoseptica, UniProt Q9KJX5); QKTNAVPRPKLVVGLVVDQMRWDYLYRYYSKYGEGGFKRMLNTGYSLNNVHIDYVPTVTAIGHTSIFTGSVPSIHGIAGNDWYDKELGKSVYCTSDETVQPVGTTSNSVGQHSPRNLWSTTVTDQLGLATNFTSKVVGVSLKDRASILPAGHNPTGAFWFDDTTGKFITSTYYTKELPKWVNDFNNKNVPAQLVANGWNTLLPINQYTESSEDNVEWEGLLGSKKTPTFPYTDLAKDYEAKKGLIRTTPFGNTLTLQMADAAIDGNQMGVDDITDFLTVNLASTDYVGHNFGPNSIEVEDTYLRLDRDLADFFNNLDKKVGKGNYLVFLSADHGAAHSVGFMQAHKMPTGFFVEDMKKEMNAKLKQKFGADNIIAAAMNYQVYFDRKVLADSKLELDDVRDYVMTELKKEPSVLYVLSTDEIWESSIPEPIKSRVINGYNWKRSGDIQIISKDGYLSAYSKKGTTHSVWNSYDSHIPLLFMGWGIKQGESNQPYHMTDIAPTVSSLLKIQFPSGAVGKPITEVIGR"}
{"Variant": "P178G", "oxyanion analog dissociation constant": "2.11 µM"}
{"Variant": "I66G", "oxyanion analog dissociation constant": "1.72 µM"}
{"Variant": "D300V", "oxyanion analog dissociation constant": "673 nM"}
{"Variant": "I524V", "oxyanion analog dissociation constant": "2.14 µM"}
{"Variant": "P519G", "oxyanion analog dissociation constant": "2.7 µM"}
{"Variant": "S457G", "oxyanion analog dissociation constant": "2.21 µM"}
{"Variant": "P203G", "oxyanion analog dissociation constant": "1.86 µM"}
{"Variant": "T123V", "oxyanion analog dissociation constant": "1.8 µM"}
{"Variant": "D96G", "oxyanion analog dissociation constant": "< 83.8 nM"}
{"Variant": "G33V", "oxyanion analog dissociation constant": "2.33 µM"}
{"Variant": "S513G", "oxyanion analog dissociation constant": "1.72 µM"}
{"Variant": "E216V", "oxyanion analog dissociation constant": "2.01 µM"}
{"Variant": "L87V", "oxyanion analog dissociation constant": "2.34 µM"}
{"Variant": "S283V", "oxyanion analog dissociation constant": "3.33 µM"}
{"Variant": "M268G", "oxyanion analog dissociation constant": "1.24 µM"}
{"Variant": "N131V", "oxyanion analog dissociation constant": "2.05 µM"}
{"Variant": "V399A", "oxyanion analog dissociation constant": "2.1 µM"}
{"Variant": "L277V", "oxyanion analog dissociation constant": "2.32 µM"}
{"Variant": "D96V", "oxyanion analog dissociation constant": "1.37 µM"}
{"Variant": "A458G", "oxyanion analog dissociation constant": "2.11 µM"}
{"Variant": "T274G", "oxyanion analog dissociation constant": "1.88 µM"}
{"Variant": "I245V", "oxyanion analog dissociation constant": "2.08 µM"}
{"Variant": "L25G", "oxyanion analog dissociation constant": "2.5 µM"}
{"Variant": "Q257V", "oxyanion analog dissociation constant": "2.39 µM"}
{"Variant": "L128V", "oxyanion analog dissociation constant": "1.95 µM"}
{"data": "Single results of other studies"}
{"Structure (SMILES)": "CNC(=O)c1ccc(-c2cnn3ccc(C(=O)N(C)c4ccc(Cl)c(C(=O)OC)c4)cc23)cc1", "organism": "Cryptosporidium parvum", "assay": "time-kill", "system": "nanoluciferase-expressing", "conditions": "3 nM, 4 h", "how to read": "relative to: DMSO", "measurement": "luminescence", "result": "88.6% and 118%"}
{"note": "Repeated from above (block 3):"}
{"Variant": "E216V", "oxyanion analog dissociation constant": "2.01 µM"}
{"Variant": "P519G", "oxyanion analog dissociation constant": "2.7 µM"}
{"Variant": "A458G", "oxyanion analog dissociation constant": "2.11 µM"}
{"Variant": "L277V", "oxyanion analog dissociation constant": "2.32 µM"}
{"Variant": "S513G", "oxyanion analog dissociation constant": "1.72 µM"}
{"Variant": "L25G", "oxyanion analog dissociation constant": "2.5 µM"}
{"Variant": "T274G", "oxyanion analog dissociation constant": "1.88 µM"}
